Assay results gathered from unrelated publications.
Protocols differ between the studies behind these lines. Values joined by “and” are separate records of one study, mostly repeats; a detail may differ.
UniProt P40926, sequence (whole entry, looked up): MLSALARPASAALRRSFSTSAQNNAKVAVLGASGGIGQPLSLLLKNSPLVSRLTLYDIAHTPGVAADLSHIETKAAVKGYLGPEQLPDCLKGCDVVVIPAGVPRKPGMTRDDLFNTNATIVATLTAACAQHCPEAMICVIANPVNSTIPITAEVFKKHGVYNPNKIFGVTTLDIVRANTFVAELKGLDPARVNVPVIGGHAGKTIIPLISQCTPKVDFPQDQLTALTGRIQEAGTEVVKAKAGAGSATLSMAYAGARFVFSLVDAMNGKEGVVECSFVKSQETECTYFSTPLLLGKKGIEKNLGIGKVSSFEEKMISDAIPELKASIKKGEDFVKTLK

For C[C@]1(CO)Cc2ncn(-c3ccc(C#N)c(Cl)c3)c2C(=O)O1, “urinary sodium excretion Ae(0-24h)” read 254 mmol (human; 10 mg single dose).
The triglycerides of C[C@H]1O[C@@H](O[C@H]2CC[C@@]3(C)[C@@H](CC[C@]4(C)[C@@H]3C=C[C@]35OC[C@@]6(CCC(C)(C)C[C@H]63)[C@@H](O)C[C@]54C)[C@]2(C)CO)[C@H](O)[C@@H](O[C@@H]2O[C@H](CO)[C@@H](O)[C@H](O)[C@H]2O)[C@H]1O is reported as 1.44 mM and 1.2 mM and 1.21 mM and 1.55 mM and 1.37 mM and 1.32 mM (mouse, ethanol-fed, hepatic SIRT1 knockdown, serum; dose not given, 5 h, high dose).
With COc1ccccc1N1CCN(CCN(C(=O)C2CCCCC2)c2ccccn2)CC1 the IC50 was 7.94 µM (Plasmodium falciparum; W2).
Under “log2 fold change”, CC[C@H](C)[C@@H]1NC(=O)[C@@H]2CCCN2C(=O)[C@H](CC(C)C)NC(=O)[C@H](CC(C)C)NC(=O)CNC(=O)[C@@H](NC(=O)[C@@H](NC(=O)[C@H](CC(=O)O)NC(=O)CNC(=O)[C@@H](NC(=O)[C@H](C)NC(=O)CNC(=O)[C@H](CCCCN)NC(=O)[C@H](CC(C)C)NC(=O)[C@H](CC(C)C)NC(=O)[C@H](CCCCN)NC(=O)CNC(=O)[C@@H](NC(=O)[C@@H](N)CC(C)C)C(C)C)C(C)C)C(C)C)CSSC[C@@H](C(=O)O)NC1=O is recorded as -1.2 (RNA-seq, item: Adnp mRNA; mouse traumatic brain injury, frontal cortex and hippocampus; dose not given; reference: TBI plus compound vs TBI).
For CN1CCN(S(=O)(=O)c2cc([N+](=O)[O-])ccc2N(CCOS(C)(=O)=O)CCOS(C)(=O)=O)CC1, “EFS ratio (T/C)” read greater than 54.8 (NSG mice, sample CH PDX; intraperitoneal, 25 mg/kg weekly x3; reference: treated over vehicle).
The IC50 of CC1(C(=O)O)C2CCC(O2)C1(C)C(=O)O (centres unmarked) is reported as 3.16 µM (Plasmodium falciparum; GB4).
CCCCC/C=C\C/C=C\C/C=C\Cc1ccccc1CCCC(=O)N[C@H](C)CO: “paw withdrawal threshold” “no effect” (mechanical hypersensitivity, electronic von Frey; mouse, CFA inflammatory pain model, contralateral non-inflamed paw; ip, 1 mg/kg; reference: vehicle).
Cc1nc(Nc2ccc(CC(=O)O)cc2)nc(Nc2ccc(F)c(C(F)(F)F)c2)c1C: “Sirius Red staining” “decreased” (mice, chronic ethanol plus binge, liver; intraperitoneal, 0.3 mg/kg daily, ethanol diet 4 weeks, dosed last two; reference: vehicle).
Cn1cnc(CCN)c1 — result for “log2 fold change”: -0.305 (binding, MIDAS equilibrium dialysis LC-MS; A2AR-BRIL thermostabilized; concentration not given; reference: no-protein control).
The relative abundance of C[C@H]1CN(c2n[nH]c3nc(N[C@H]4CC[C@H](NS(=O)(=O)CCC(F)(F)F)CC4)ncc23)CCO1 is reported as 1.15 (MDH2 (Homo sapiens, UniProt P40926); inhibitor, Kinobeads competition profiling; 0.8 µM; reference: vehicle).
With CCCCC1(CCCC)CN(c2ccccc2)c2cc(SC)c(OCC(=O)N[C@@H](C(=O)NCC(=O)O)c3ccccc3)cc2S(=O)(=O)C1 the serum HDL-C was 51 mg/dL (item: HDL cholesterol; human, serum; 20 mg once daily, day 11).

Repeated from above:
Cc1nc(Nc2ccc(CC(=O)O)cc2)nc(Nc2ccc(F)c(C(F)(F)F)c2)c1C: “Sirius Red staining” “decreased” (mice, chronic ethanol plus binge, liver; intraperitoneal, 0.3 mg/kg daily, ethanol diet 4 weeks, dosed last two; reference: vehicle).
